{"data": "Results pooled from the literature", "note": "Each numbered part is a random draw from the data of one study; scales do not carry over between parts. Positions count from the first letter of the parent shown."}
{"data": "Block 1", "target": "RING finger protein unkempt homolog, zinc fingers 1-6, GST-SBP tag (UNK, Homo sapiens, UniProt Q9C0B0, residues 30-357)", "method": "RNA Bind-n-Seq", "form": "RNA", "medium": "in vitro", "tested at": "not given", "notes": "RNA with constant flanks, human and mouse sites, ends assumed", "baseline": "input RNA pool", "direction": "higher = stronger binding", "shared flanks, not repeated": "GGGAGUUCUACAGUCCGACGAUC … CAACAGAGGAUUGAGCAUCA", "chain of UniProt Q9C0B0 (30-357, looked up)": "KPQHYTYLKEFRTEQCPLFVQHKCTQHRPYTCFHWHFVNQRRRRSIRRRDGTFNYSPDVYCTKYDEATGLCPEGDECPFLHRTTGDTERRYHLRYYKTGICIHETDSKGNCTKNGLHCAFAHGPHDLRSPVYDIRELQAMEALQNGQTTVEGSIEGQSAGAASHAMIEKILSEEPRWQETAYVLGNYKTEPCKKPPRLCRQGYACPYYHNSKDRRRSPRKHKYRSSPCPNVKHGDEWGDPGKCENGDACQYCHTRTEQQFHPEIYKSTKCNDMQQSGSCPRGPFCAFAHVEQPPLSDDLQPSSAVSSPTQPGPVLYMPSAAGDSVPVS"}
{"Oligonucleotide": "GAACAGCUCACGAGAGGGUCCGUCGUAACCUGUUGAGUAACUAUGGAAGACUAUAUCAAAAUAGAGAAAAUUGGAGAAGGUACUUACGGUGUGGUGUAUAAGGGUAGACACAGAGUCACU", "bound/input enrichment": "0.757 ratio"}
{"Oligonucleotide": "AGUUGGGAUGAUCAAUGCAGUGCUGUUGAAGUGGGAGAGAAGAAAUGUGGAAACCUGGCUUGUCUGCCAGAUGAGAAGAAUGUUCUUGUUGUAGCCGUCAUGCAUAACUGUGAUAAAAGG", "bound/input enrichment": "0.469 ratio"}
{"Oligonucleotide": "GUAAAUUAUGUAAUGCAAAAUUUUUUUAAUCUUCGCCUUAAUACUUUUUUAUUUUGUUUUAUUUUGAAUGAUGAGCCUUCGUGCCCCCCCUUCCCCCUUUUUUGUCCCCCAACUUGAGAU", "bound/input enrichment": "0.661 ratio"}
{"Oligonucleotide": "CACCGGAGAACGGAUACCAGUCCUUGCUGAGUAGCGACGAUCAGCUCUUCAUUUACGAAACGGCCGGGGCGCUGAUUGUUAACAGUGAAUACCCCGCAGAAAAUAAGCAGGCCUUAAUGA", "bound/input enrichment": "0.162 ratio"}
{"Oligonucleotide": "UUCUCUGAGGCCCGUGAGGACAUGGCUGCCCUAGAGAAGGAUUAUGAGGAGGUUGGUGUGGAUUCUGUGGAAGGCGAGGGGGAGGAAGAAGGAGAGGAAUACUAAAUUAAAUGUCACAAG", "bound/input enrichment": "0.598 ratio"}
{"data": "Block 2", "target": "Prothrombin, mature alpha-thrombin (F2, Homo sapiens, UniProt P00734)", "method": "aptamer microarray, sandwich", "form": "DNA with 2'F-ANA", "medium": "in vitro", "tested at": "200 nM", "notes": "whole 15-mer aptamer, many near background", "together with": "Cy3 exosite-II aptamer, 400 nM", "direction": "higher = stronger binding"}
{"Oligonucleotide": "GGTTGGTGTGGTTGG (2'F-ANA at 2 4 5 9 10 11 13 14 15)", "mean fluorescence intensity [a.u.]": 45.4}
{"Oligonucleotide": "GGTTGGTGTGGTTGG (2'F-ANA at 2 5 7 8 9 10 11 12 13 15)", "mean fluorescence intensity [a.u.]": 50.3}
{"Oligonucleotide": "GGTTGGTGTGGTTGG (2'F-ANA at 5 10 13 14)", "mean fluorescence intensity [a.u.]": 151}
{"Oligonucleotide": "GGTTGGTGTGGTTGG (2'F-ANA at 4 8 11 14)", "mean fluorescence intensity [a.u.]": 107}
{"data": "Block 3", "target": "CCNB1, cyclin fold, Cln2 fusion (human)", "method": "yeast growth competition, sequencing", "medium": "yeast", "notes": "strong parent motif", "baseline": "not given", "direction": "higher = stronger binding", "starting sequence": "PKN2 docking peptide (human); VSAVQKLDFSDTM"}
{"Substitution": "VSAVQKLDFSDTQ [M13Q]", "normalised enrichment score": 1.74}
{"Substitution": "VSAIQKLDFSDTM [V4I]", "normalised enrichment score": 1.46}
{"Substitution": "VSAVQKLDSSDTM [F9S]", "normalised enrichment score": 0.709}
{"Substitution": "FSAVQKLDFSDTM [V1F]", "normalised enrichment score": 2.49}
{"data": "Single results of other studies"}
{"Substance": "PhoQ, residues 284 288 289 292 302 303 NLSRDF", "target": "PhoP, residues 12 14 15 18 19 NMSFL (Escherichia coli, UniProt P23836)", "test": "Sort-seq, item: YFP reporter", "test system": "E. coli", "setting": "PhoQ-PhoP variant library, together with: 10 µM Mg2+", "how to read": "baseline: high Mg2+ state, higher = stronger signaling", "quantity": "fold induction", "result": 13.4}
{"note": "Some of these lines once more (block 3):"}
{"Substitution": "VSAVQKLDSSDTM [F9S]", "normalised enrichment score": 0.709}
{"Substitution": "VSAIQKLDFSDTM [V4I]", "normalised enrichment score": 1.46}
